Published values from different studies.
A part holds a random share of what one study measured. Several values in a cell are separate wells, animals, samples, runs or records. Values after ≈ are worked out from the molar mass of the structure shown.
Chain of UniProt P42336 (whole entry, unmodified, looked up): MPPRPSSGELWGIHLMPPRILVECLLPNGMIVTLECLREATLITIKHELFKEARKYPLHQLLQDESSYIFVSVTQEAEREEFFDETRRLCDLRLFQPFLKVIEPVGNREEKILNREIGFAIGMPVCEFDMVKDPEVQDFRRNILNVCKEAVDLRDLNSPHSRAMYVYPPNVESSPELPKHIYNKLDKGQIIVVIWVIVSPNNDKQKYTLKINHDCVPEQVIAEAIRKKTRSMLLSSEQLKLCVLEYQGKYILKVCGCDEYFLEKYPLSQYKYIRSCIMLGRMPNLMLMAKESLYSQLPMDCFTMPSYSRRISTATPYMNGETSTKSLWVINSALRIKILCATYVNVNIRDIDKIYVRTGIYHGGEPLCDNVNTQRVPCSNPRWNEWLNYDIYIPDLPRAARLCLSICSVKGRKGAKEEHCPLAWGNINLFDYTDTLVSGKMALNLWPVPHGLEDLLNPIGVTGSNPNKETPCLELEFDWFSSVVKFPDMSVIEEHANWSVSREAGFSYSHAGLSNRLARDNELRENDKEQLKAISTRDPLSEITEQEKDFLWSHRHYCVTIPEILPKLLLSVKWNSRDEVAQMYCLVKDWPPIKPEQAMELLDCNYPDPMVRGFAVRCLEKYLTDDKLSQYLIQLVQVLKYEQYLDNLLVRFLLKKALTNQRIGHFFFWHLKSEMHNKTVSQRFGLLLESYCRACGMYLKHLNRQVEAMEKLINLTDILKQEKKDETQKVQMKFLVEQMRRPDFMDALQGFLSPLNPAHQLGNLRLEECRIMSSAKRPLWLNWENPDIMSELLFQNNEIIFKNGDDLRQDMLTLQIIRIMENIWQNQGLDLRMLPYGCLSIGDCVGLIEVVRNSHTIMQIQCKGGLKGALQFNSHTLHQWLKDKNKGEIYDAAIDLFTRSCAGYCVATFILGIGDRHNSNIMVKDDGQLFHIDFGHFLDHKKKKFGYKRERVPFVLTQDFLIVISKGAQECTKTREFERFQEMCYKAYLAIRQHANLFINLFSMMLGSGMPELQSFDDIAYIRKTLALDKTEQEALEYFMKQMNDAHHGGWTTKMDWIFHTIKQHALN
Chain of UniProt P10721 (whole entry, unmodified, looked up): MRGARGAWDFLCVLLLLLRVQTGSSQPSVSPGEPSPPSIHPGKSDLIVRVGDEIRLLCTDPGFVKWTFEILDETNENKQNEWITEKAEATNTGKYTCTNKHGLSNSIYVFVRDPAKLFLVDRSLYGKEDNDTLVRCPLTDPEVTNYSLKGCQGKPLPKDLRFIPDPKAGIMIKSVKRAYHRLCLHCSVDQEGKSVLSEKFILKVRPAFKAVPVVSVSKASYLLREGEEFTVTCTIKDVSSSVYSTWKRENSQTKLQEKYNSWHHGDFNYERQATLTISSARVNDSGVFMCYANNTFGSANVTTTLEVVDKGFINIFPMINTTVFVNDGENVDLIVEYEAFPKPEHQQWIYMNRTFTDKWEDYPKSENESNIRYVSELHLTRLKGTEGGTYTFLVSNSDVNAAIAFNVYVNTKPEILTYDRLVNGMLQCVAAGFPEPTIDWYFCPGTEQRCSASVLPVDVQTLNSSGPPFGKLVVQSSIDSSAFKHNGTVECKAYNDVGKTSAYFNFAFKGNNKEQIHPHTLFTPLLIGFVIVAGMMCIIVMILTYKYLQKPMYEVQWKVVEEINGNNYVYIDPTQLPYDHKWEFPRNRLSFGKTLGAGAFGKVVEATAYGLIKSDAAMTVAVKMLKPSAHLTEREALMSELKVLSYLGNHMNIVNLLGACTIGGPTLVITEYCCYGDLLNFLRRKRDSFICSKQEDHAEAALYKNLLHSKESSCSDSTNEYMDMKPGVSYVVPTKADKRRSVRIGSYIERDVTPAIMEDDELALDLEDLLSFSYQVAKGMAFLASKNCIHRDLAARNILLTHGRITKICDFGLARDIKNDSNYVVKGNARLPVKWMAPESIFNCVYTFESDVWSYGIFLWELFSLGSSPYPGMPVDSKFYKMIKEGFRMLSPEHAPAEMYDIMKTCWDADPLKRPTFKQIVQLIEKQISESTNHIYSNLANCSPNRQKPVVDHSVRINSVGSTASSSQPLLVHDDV
Chain of UniProt Q8NE63 (whole entry, looked up): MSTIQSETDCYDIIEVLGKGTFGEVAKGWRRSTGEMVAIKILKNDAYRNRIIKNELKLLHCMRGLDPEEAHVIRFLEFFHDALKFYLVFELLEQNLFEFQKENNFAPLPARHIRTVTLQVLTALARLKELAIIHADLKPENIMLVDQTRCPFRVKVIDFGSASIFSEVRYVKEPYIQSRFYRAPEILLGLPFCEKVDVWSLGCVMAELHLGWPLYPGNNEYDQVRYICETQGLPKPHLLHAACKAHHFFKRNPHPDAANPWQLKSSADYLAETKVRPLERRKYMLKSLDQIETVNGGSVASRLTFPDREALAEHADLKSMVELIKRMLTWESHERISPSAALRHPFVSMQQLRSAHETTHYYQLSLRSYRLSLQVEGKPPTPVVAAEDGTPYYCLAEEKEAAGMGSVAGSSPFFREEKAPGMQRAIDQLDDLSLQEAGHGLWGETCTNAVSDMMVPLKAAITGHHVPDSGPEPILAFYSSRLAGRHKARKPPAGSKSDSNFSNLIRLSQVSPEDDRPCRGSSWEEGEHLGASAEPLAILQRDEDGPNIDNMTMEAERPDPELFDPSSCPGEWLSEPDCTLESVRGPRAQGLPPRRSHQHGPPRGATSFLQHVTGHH
Chain of UniProt Q15746 (whole entry, looked up): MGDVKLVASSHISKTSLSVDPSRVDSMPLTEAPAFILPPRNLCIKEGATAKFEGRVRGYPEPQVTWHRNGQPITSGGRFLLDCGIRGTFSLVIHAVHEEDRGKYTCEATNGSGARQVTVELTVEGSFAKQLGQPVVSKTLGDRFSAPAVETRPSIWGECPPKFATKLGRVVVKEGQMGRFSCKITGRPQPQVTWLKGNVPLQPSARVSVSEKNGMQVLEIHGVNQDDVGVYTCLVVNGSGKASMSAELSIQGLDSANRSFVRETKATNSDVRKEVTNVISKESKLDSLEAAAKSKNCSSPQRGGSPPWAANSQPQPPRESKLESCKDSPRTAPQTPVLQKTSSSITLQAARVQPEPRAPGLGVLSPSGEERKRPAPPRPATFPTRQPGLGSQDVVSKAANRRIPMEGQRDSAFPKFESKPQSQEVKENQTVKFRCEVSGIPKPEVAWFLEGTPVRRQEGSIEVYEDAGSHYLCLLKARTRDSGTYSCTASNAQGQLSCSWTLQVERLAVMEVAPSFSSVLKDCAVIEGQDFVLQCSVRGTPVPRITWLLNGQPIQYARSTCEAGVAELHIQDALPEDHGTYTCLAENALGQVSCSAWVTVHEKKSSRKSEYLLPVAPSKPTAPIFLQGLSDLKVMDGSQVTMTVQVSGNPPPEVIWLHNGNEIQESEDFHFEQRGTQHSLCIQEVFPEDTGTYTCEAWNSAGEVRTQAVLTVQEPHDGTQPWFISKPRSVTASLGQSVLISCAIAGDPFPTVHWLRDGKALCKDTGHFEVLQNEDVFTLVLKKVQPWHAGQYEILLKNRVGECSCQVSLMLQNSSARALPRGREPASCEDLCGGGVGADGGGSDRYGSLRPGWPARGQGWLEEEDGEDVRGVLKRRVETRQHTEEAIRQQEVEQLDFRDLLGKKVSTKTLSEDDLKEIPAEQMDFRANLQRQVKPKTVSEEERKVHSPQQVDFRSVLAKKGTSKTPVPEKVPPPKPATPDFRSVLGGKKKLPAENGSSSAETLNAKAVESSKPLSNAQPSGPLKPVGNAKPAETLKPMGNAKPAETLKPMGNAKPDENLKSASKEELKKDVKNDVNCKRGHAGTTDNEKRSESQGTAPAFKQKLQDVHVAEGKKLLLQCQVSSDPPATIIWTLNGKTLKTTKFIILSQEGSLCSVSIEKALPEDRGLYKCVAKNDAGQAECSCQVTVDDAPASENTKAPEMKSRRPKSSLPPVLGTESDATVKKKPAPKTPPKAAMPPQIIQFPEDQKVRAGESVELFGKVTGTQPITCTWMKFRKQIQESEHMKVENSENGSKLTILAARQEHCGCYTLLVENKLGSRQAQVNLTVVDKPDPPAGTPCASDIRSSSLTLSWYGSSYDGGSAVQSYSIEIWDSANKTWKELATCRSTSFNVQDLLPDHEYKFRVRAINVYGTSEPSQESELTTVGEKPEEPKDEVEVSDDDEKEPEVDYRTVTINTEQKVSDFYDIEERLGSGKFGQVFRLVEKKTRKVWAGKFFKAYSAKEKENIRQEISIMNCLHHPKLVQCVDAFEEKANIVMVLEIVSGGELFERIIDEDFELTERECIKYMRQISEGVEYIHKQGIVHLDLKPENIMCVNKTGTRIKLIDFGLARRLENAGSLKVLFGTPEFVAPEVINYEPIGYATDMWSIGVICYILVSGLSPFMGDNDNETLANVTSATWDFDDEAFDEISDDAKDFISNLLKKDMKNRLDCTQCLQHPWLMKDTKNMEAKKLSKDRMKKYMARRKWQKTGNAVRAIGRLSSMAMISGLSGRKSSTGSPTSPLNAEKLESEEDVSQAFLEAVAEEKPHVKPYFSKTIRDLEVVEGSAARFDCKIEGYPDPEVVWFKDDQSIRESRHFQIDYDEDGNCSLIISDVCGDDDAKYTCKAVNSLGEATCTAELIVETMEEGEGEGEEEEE

Sample 1
Structure (SMILES): Cn1cncc1[C@@](O)(COc1ccc(C#N)cc1-c1ccc(OC(F)(F)F)cc1)c1ccc(C#N)cc1
Technique: competition with immobilised ligand
Tested at: 1 µM
target	test	remaining binding [%]
STK38L (Homo sapiens, UniProt Q9Y2H1)	binding	87
EGFR (Homo sapiens, UniProt P00533, del752-759)	cell-free assay	64
Ribosomal protein S6 kinase alpha-3, N-terminal kinase domain (RPS6KA3, Homo sapiens, UniProt P51812)	cell-free assay	98
PLK4 (Homo sapiens, UniProt O00444)	cell-free assay	84
PRKCD (Homo sapiens, UniProt Q05655)	cell-free assay	100
LRRK2 (Homo sapiens, UniProt Q5S007)	cell-free assay	100
SBK3 (Homo sapiens, UniProt P0C264)	cell-free assay	92
Mast/stem cell growth factor receptor Kit, autoinhibited (KIT, Homo sapiens, UniProt P10721)	cell-free assay	90
PIK3CA (Homo sapiens, UniProt P42336, E545A)	cell-free assay	86
PIK3CA (Homo sapiens, UniProt P42336, M1043I)	cell-free assay	72
EIF2AK1 (Homo sapiens, UniProt Q9BQI3)	cell-free assay	100
KIT (Homo sapiens, UniProt P10721, D816V)	cell-free assay	100
PIK3CD (Homo sapiens, UniProt O00329)	cell-free assay	84
HIPK4 (Homo sapiens, UniProt Q8NE63)	cell-free assay	100
RIOK1 (Homo sapiens, UniProt Q9BRS2)	cell-free assay	100
MAP3K7 (Homo sapiens, UniProt O43318)	cell-free assay	67
TNK2 (Homo sapiens, UniProt Q07912)	cell-free assay	100
FLT3 (Homo sapiens, UniProt P36888, N841I)	cell-free assay	100
MYLK (Homo sapiens, UniProt Q15746)	cell-free assay	99
SRPK3 (Homo sapiens, UniProt Q9UPE1)	cell-free assay	56

Sample 2
Cell line: HaCaT
Tested at: 100 µM
Time: 18 h
Structure (SMILES)	viability
COc1ccc(CN2CCNCC2)c(OC)c1OC	108%
N#Cc1nn(-c2c(Cl)cc(C(F)(F)F)cc2Cl)c(N)c1[S+]([O-])C(F)(F)F (stereo not shown)	54.7%
C[C@]12CC[C@H]3[C@@H](CCC4=CC(=O)CC[C@@]43C)[C@@H]1CC[C@@H]2O	89.8%

Sample 3
SMILES: CCCCC[C@@H](O)CC(=O)N[C@@H]1C(=O)N[C@H](CCCNC(=N)N)C(=O)N[C@@H](CO)C(=O)NCC(=O)N(C)[C@H](Cc2ccccc2)C(=O)N[C@@H](CC(C)C)C(=O)N[C@H](CCCNC(=N)N)C(=O)N[C@@H](CO)C(=O)N[C@H]([C@H](C)O)C(=O)N[C@H](Cc2c[nH]c3ccccc23)C(=O)N[C@@H]([C@@H](C)CC)C(=O)NCC(=O)O[C@@H]1C
Organism: Staphylococcus aureus
Strain: USA300
conditions	MIC [µg/mL]
added: menaquinone 0.25 µg/mL	16 (≈ 10.5 µM)
added: menaquinone 0.125 µg/mL	16 (≈ 10.5 µM)
added: ubiquinone 64 µg/mL	8 (≈ 5.27 µM)
added: menaquinone 0 µg/mL	8 (≈ 5.27 µM)
added: menaquinone 64 µg/mL	> 64

Sample 4
Target: Eukaryotic initiation factor 4A-III (Homo sapiens, UniProt P38919)
Chain of UniProt P38919 (whole entry, looked up): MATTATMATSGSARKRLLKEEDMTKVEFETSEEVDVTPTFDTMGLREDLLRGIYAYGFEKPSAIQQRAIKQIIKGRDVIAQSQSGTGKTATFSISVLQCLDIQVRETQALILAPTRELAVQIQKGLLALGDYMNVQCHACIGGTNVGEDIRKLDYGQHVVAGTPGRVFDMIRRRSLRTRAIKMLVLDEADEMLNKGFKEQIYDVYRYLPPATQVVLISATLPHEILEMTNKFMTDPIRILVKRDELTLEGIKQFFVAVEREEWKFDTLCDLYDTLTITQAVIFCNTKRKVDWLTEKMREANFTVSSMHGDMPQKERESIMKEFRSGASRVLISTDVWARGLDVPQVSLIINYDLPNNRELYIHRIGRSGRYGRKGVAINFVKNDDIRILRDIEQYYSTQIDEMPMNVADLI
Observed: RNA clamping
Technique: fluorescence polarization
Tested at: concentration not given
Setting: mean of two replicates
Added: FAM-labelled poly r(AG)8 RNA
Compound	fluorescence polarization change
COc1ccc([C@@]23Oc4cc(OC)cc(OC)c4[C@]2(O)c2nc(-c4ccccc4)[nH]c(=O)c2[C@H]3c2ccccc2)cc1	4.7 mP
COCC1=N[C@@]2(O)[C@H](C(=O)N(C)OC)[C@@H](c3ccccc3)[C@]3(c4ccc(OC)cc4)Oc4cc(OC)cc(OC)c4[C@]23N1	28.2 mP
COC(=O)[C@H]1[C@@H](O)[C@@]2(O)c3c(OC)cc(OC)cc3O[C@@]2(c2ccc(OC)cc2)[C@@H]1c1ccccc1	46.7 mP and 22.5 mP
COCCN[C@]12c3c(OC)cc(OC)cc3O[C@@]1(c1ccc(OC)cc1)[C@H](c1ccccc1)C[C@@H]2O	4.3 mP
COc1ccc(-c2nc3c(c(=O)[nH]2)[C@H](c2ccccc2)[C@@]2(c4ccc(OC)cc4)Oc4cc(OC)cc(OC)c4[C@@]32O)cc1	15.9 mP
COc1ccc([C@@]23Oc4cc(OC)cc(OC)c4[C@]2(O)c2nc(-c4ccccc4)n(C)c(=O)c2[C@H]3c2ccccc2)cc1	18 mP
COC(=O)[C@@H]1[C@@H](c2ccccc2)[C@]2(c3ccccc3)Oc3ccccc3[C@@]1(O)[C@H]2O	1 mP

Further values, each from its own experiment
Molecule	target or system	test	test system	conditions	scale	endpoint	result
Cc1cccc(C)c1-n1nnnc1C1(N)CCC(C)CC1 (stereo not shown)			human, microsomes or S9	2 µM, 0.5 h		remaining compound	0.99%
DTFDEAFLAAVRSHQG	human cyclin A2	peptide binding, competitive growth sequencing	peptide, Saccharomyces cerevisiae, cyclin A2-Cln2 fusion strain	concentration not given, peptide tiling library	relative to: unfused Cln2 strain, direction not given	binding score	0.42
CCc1cc2c(s1)-n1c(C)nnc1CN=C2c1ccccc1Cl	DNA polymerase theta, ATPase domain (POLQ, Homo sapiens, UniProt O75417)	enzyme activity, inhibitor		77 µM	relative to: untreated	remaining activity	93.1%
AAAVRKPIVLKR	human cyclin A2	peptide binding, competitive growth sequencing	peptide, Saccharomyces cerevisiae, cyclin A2-Cln2 fusion strain	concentration not given, peptide tiling library	relative to: unfused Cln2 strain, direction not given	binding score	-0.0911
C/C=C\c1cc(OC)c(OC)cc1OC	CAMK2A (Homo sapiens, UniProt Q9UQM7)	enzyme activity, inhibitor		10 µM		inhibition	17%

Some of these lines once more (sample 1):
target	test	remaining binding [%]
PIK3CA (Homo sapiens, UniProt P42336, M1043I)	cell-free assay	72
EIF2AK1 (Homo sapiens, UniProt Q9BQI3)	cell-free assay	100
